Results gathered from unrelated publications.
Numbers after ± are the reported error.
Cell line: MIA PaCa-2

CCn1cc(-c2cc(Cn3ccoc3=N)cc3c2CCN([C@@H](C)c2cc(OC)ccn2)C3=O)c(C(F)(F)F)n1 — EC50 (cell growth; 120 h): 0.238 µM
O=c1[nH]cc(F)c(=O)[nH]1 — GI50 (cell growth, sulforhodamine B): 16 ± 5 µM
Cn1ncc2c(NC(P(=O)(O)O)P(=O)(O)O)nc(-c3cccc(C(=O)Nc4ccc(C(F)(F)F)cc4)c3)nc21 — lowest effective concentration (Rap1A prenylation, inhibitor, Western blot): ≤ 100 nM
O=C(Nc1cccc2cccnc12)c1cnccn1 — lowest effective concentration (protein induction, Western blot, refers to: WIPI1; 72 h): 250 nM
C=CC(=O)N1CCN(c2nc(=O)n(-c3c(C)ccnc3C3CC3)c3nc(-c4ccccc4F)c(Cl)cc23)[C@@H](C)C1 — IC50 (ERK1/2 phosphorylation, inhibitor, MSD immunoassay, refers to: p-ERK1/2; 2 h): 0.038 µM
COc1cccc2c1C(=O)c1c(O)c3c(c(O)c1C2=O)C[C@@](O)(C(=O)CO)C[C@@H]3O[C@H]1C[C@H](N)[C@H](O)[C@H](C)O1 — Emax (cytotoxicity, WST-1; 72 h, highest tested concentration): 99%
[NH2][Pt]([NH2])([Cl])[Cl] — GI50 (cell growth, sulforhodamine B): 1.8 ± 0.5 µM
CNC(=O)c1ccccc1Nc1cc(Nc2ccc(N3CCOCC3)cc2OC)ncc1C(F)(F)F — intracellular concentration (cellular uptake; 20 µM, 2 h): ~0.45 pg/cell
Fc1ccc(-n2cc(CCCCN3CCC4(CC3)OCc3ccccc34)c3ccccc32)cc1 — protein level (western blot, refers to: GRP78; concentration not given, 24 h): increased
CN(C)CCN1CCN(CCCN2c3ccccc3Sc3ccc(C(F)(F)F)cc32)CC1 — IC50 (cell viability; 72 h): 2.3 µM
O=C(/C=C/C=C/C=C/C1CCCCC1)NC1=C[C@@](O)(/C=C/C=C/C=C/C(=O)NC2=C(O)CCC2=O)[C@@H]2O[C@@H]2C1=O — GI50 (CellTiter-Glo; 78 h): 19.3 µM
COc1cnc2cccc(N3CCc4c(cc(Cn5ccnc5C)cc4-c4cn(C)nc4C(F)(F)F)C3=O)c2c1 — EC50 (cell growth; 120 h): 1.44 µM
O=C(CN1CCC(CN2Cc3ccccc3C2=O)CC1)c1ccc(F)cc1 — protein level (western blot, refers to: GRP78; concentration not given, 24 h): increased
Nc1ccn([C@@H]2O[C@H](CO)[C@@H](O)C2(F)F)c(=O)n1 — IC50 (cell viability, MTT; mutant KRAS primary): 0.009 µM

Excerpt of the above:
COc1cnc2cccc(N3CCc4c(cc(Cn5ccnc5C)cc4-c4cn(C)nc4C(F)(F)F)C3=O)c2c1 — EC50 (cell growth; 120 h): 1.44 µM
O=C(CN1CCC(CN2Cc3ccccc3C2=O)CC1)c1ccc(F)cc1 — protein level (western blot, refers to: GRP78; concentration not given, 24 h): increased
